Measurements from different studies.
Each line is one published result; not all experiments were run side by side. Values joined by “and” are separate records of one study, mostly repeats; a detail may differ. ± gives the spread as reported. Square brackets hold non-standard residues; d marks the D form. Ends that are not written are not given here. * marks the point of attachment.
B1: myo52/cam1/cdc4 heavy chain 1-1056 (Schizosaccharomyces pombe); chain 1 MTSGIYYKGLQCWIPDEQSQWIPGSIKDCRVEGEKAFLTVQDENENETVITVKPDDLNYEGRNGLPFLRSINSDADDLTDLSYLNEPSVLDALSTRYNQLQIYTYSGIVLIAVNPFQRLPNLYTHEIVRAYSEKSRDELDPHLYAIAEDSYKCMNQEHKNQTIIISGESGAGKTVSARYIMRYFASVQALIQSTDSNFHEAPQLTAVENEILATNPIMEAFGNSKTSRNDNSSRFGKYIQILFDGNATIIGAKIQTYLLERSRLVFQPNQERNYHIFYQILAGSSSEQLEKWKLVENSQEFNYLKQGNCSTIEGVNDKEEFKATVDALKTVGIDNDTCECIFSLLAALLHIGNIEVKHSRNDAYIDSKNENLINATSLLGVDPSSLVKWLTKRKIKMASEGILKPLNEFQAVVARDSVAKFLYASLFDWLVATINKALMYSADKSNQTAKSFIGVLDIYGFEHFKKNSFEQFCINYANEKLQQEFYRHVFKLEQEEYAAEGLNWSYIDYQDNQQCISMIESRLGILSLLDEECRMPTNSDENWVSKLNDAFSKPEFKNSYQKSRFGNKEFTIKHYALDVVYCAEGFIDKNRDTISDELLELFTNSDVPFVKDLVLFRLEQTAPPADTKKIKTKPKSNTLGSMFKSSLVSLMSTINETNAHYIRCIKPNEEKEAWKFDNQMVVSQLRACGVLETIKISCAGFPSRWTFDEFVSRYYMLVPSAVRTTESLTFSKAILEKHADPTKYQIGKTKIFFRSGVTPLLESARDKALKHAAHLLYEAFAVNYYRTRFLLSRKRVRSFQAVAHGFLSRRHTEYELLSSNIIKLQSLWRTALKRKEFIQTKNSILKVQSIIRGFLLRQTLEEKTKHDATLIIQSLWLTFKAHKHYKELQYYAVRIQSLWRMKLAKRQLTELKIESTKASHLKQVSYRLESRLFEISKQLDNSEQENNKFRERIAELESHLSNYAEAKLAQERELEQTRVLISDQSQDGELKELLEEKENALIMMEEEMRQVNDANTELLRVNATLKSQLKNYDMIIVEQTSQLKEKNRIIASLTKA; chain 2 MTTRNLTDEQIAEFREAFSLFDRDQDGNITSNELGVVMRSLGQSPTAAELQDMINEVDADGNGTIDFTEFLTMMARKMKDTDNEEEVREAFKVFDKDGNGYITVEELTHVLTSLGERLSQEEVADMIREADTDGDGVINYEEFSRVISSK; chain 3 MSTDDSPYKQAFSLFDRHGTGRIPKTSIGDLLRACGQNPTLAEITEIESTLPAEVDMEQFLQVLNRPNGFDMPGDPEEFVKGFQVFDKDATGMIGVGELRYVLTSLGEKLSNEEMDELLKGVPVKDGMVNYHDFVQMILAN
B2: PDHA1/PDHB mature heterotetramer (Homo sapiens); chain 1 FANDATFEIKKCDLHRLEEGPPVTTVLTREDGLKYYRMMQTVRRMELKADQLYKQKIIRGFCHLCDGQEACCVGLEAGINPTDHLITAYRAHGFTFTRGLSVREILAELTGRKGGCAKGKGGSMHMYAKNFYGGNGIVGAQVPLGAGIALACKYNGKDEVCLTLYGDGAANQGQIFEAYNMAALWKLPCIFICENNRYGMGTSVERAAASTDYYKRGDFIPGLRVDGMDILCVREATRFAAAYCRSGKGPILMELQTYRYHGHSMSDPGVSYRTREEIQEVRSKSDPIMLLKDRMVNSNLASVEELKEIDVEVRKEIEDAAQFATADPEPPLEELGYHIYSSDPPFEVRGANQWIKFKSVS; chain 2 LQVTVRDAINQGMDEELERDEKVFLLGEEVAQYDGAYKVSRGLWKKYGDKRIIDTPISEMGFAGIAVGAAMAGLRPICEFMTFNFSMQAIDQVINSAAKTYYMSGGLQPVPIVFRGPNGASAGVAAQHSQCFAAWYGHCPGLKVVSPWNSEDAKGLIKSAIRDNNPVVVLENELMYGVPFEFPPEAQSKDFLIPIGKAKIERQGTHITVVSHSRPVGHCLEAAAVLSKEGVECEVINMRTIRPMDMETIEASVMKTNHLVTVEGGWPQFGVGAEICARIMEGPAFNFLDAPAVRVTGADVPMPYAKILEDNSIPQVKDIIFAIKKTLNI
B3: RAB8A GTP-bound Q67L (UniProt P61006); sequence looked up; chain MAKTYDYLFKLLLIGDSGVGKTCVLFRFSEDAFNSTFISTIGIDFKIRTIELDGKRIKLQIWDTAGLERFRTITTAYYRGAMGIMLVYDITNEKSFDNIRNWIRNIEEHASADVEKMILGNKCDVNDKRQVSKERGEKLALDYGIKFMETSAKANINVENAFFTLARDIKAKMDKKLEGNSPQGSNQGVKITPDQQKRSSFFRCVLL
B4: TIF4631 572-853 K590R (Saccharomyces cerevisiae, UniProt P39935); sequence looked up; chain LVPSANRWVPKFKSKKTERKLAPDGKTELLDKDEVERKMKSLLNKLTLEMFDAISSEILAIANISVWETNGETLKAVIEQIFLKACDEPHWSSMYAQLCGKVVKELNPDITDETNEGKTGPKLVLHYLVARCHAEFDKGWTDKLPTNEDGTPLEPEMMSEEYYAAASAKRRGLGLVRFIGFLYRLNLLTGKMMFECFRRLMKDLTDSPSEETLESVVELLNTVGEQFETDSFRTGQATLEGSQLLDSLFGILDNIIQTAKISSRIKFKLIDIKELRHDKNWN
B5: Thy1 (Mus musculus, UniProt P01831); sequence looked up; chain QKVTSLTACLVNQNLRLDCRHENNTKDNSIQHEFSLTREKRKHVLSGTLGIPEHTYRSRVTLSNQPYIKVLTLANFTTKDEGDYFCELQVSGANPMSSNKSISVYRDKLVKC
B6: enzyme (Bacillus pumilus, UniProt A8FFI9); chain EARSIAWSVDEFFKNREGTFVIQEVKEKSPWVYNKKRAKERFAPQSTFKVANALIGLQTGAVRDEYDIKYWDGVKREIDNWNRDHTLGSGMRDSVVWYYQAMARDIGEERMNHWVKAIHYGNKDISGGIDQFWLSSTLRISPIEQVRFLKQLYEETLPFDLKNMRTVKRMMVQEEEKHATLYGKTGSGSDIGWYVGFIKHEHKTYILATNIKGTGIEAKDITYRILKKYHLMEASV
B7: DNA polymerase beta 339-575 (Thermus thermophilus, UniProt Q5SJ64); sequence looked up; chain GDLQVHSTYSDGQNTLEELWEAAKTMGYRYLAVTDHSPAVRVAGGPSPEEALKRVGEIRRFNETHGPPYLLAGAEVDIHPDGTLDYPDWVLRELDLVLVSVHSRFNLPKADQTKRLLKALENPFVHVLAHPTARLLGRRAPIEADWEAVFQKAKEKGVAVEIDGYYDRMDLPDDLARMAYGMGLWISLSTDAHQTDHLRFMELAVGTAQRAWIGPERVLNTLDYEDLLSWLKARRGV
B8: UGT1A9 (Homo sapiens, UniProt O60656); chain GKLLVVPMDGSHWFTMRSVVEKLILRGHEVVVVMPEVSWQLGRSLNCTVKTYSTSYTLEDLDREFKAFAHAQWKAQVRSIYSLLMGSYNDIFDLFFSNCRSLFKDKKLVEYLKESSFDAVFLDPFDNCGLIVAKYFSLPSVVFARGILCHYLEEGAQCPAPLSYVPRILLGFSDAMTFKERVRNHIMHLEEHLLCHRFFKNALEIASEILQTPVTEYDLYSHTSIWLLRTDFVLDYPKPVMPNMIFIGGINCHQGKPLPMEFEAYINASGEHGIVVFSLGSMVSEIPEKKAMAIADALGKIPQTVLWRYTGTRPSNLANNTILVKWLPQNDLLGHPMTRAFITHAGSHGVYESICNGVPMVMMPLFGDQMDNAKRMETKGAGVTLNVLEMTSEDLENALKAVINDKSYKENIMRLSSLHKDRPVEPLDLAVFWVEFVMRHKGAPHLRPAAHDLTWYQYHSLDVIGFLLAVVLTVAFITFKCCAYGYRKCLGKKGRVKKAHKSKTH
B9: PPARG AF-1 1-136 (Homo sapiens, UniProt P37231-1); pS112, pT75; chain MGETLGDSPIDPESDSFTDTLSANISQEMTMVDTEMPFWPTNFGISSVDLSVMEDHSHSFDIKPFTTVDFSSISTPHYEDIPFTRTDPVVADYKYDLKLQEYQSAIKVEPASPPYYSEKTQLYNKPHEEPSNSLMA
Chain of UniProt P15873 (whole entry, unmodified, looked up): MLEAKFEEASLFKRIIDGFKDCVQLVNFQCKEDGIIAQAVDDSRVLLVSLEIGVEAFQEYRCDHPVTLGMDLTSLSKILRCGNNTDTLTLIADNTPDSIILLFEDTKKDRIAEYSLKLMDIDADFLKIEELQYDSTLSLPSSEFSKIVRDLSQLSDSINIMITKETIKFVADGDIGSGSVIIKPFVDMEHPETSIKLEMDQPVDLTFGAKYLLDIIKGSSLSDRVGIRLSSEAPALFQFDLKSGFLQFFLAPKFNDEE
Chain of UniProt O60573 (whole entry, looked up): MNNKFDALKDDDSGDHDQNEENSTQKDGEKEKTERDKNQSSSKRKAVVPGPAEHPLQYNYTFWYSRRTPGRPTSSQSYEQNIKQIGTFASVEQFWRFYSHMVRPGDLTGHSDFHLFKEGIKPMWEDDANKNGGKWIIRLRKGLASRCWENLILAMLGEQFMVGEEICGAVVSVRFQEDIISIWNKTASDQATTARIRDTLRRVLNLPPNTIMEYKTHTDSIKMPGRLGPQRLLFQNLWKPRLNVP
Chain of UniProt P29597 (whole entry, looked up): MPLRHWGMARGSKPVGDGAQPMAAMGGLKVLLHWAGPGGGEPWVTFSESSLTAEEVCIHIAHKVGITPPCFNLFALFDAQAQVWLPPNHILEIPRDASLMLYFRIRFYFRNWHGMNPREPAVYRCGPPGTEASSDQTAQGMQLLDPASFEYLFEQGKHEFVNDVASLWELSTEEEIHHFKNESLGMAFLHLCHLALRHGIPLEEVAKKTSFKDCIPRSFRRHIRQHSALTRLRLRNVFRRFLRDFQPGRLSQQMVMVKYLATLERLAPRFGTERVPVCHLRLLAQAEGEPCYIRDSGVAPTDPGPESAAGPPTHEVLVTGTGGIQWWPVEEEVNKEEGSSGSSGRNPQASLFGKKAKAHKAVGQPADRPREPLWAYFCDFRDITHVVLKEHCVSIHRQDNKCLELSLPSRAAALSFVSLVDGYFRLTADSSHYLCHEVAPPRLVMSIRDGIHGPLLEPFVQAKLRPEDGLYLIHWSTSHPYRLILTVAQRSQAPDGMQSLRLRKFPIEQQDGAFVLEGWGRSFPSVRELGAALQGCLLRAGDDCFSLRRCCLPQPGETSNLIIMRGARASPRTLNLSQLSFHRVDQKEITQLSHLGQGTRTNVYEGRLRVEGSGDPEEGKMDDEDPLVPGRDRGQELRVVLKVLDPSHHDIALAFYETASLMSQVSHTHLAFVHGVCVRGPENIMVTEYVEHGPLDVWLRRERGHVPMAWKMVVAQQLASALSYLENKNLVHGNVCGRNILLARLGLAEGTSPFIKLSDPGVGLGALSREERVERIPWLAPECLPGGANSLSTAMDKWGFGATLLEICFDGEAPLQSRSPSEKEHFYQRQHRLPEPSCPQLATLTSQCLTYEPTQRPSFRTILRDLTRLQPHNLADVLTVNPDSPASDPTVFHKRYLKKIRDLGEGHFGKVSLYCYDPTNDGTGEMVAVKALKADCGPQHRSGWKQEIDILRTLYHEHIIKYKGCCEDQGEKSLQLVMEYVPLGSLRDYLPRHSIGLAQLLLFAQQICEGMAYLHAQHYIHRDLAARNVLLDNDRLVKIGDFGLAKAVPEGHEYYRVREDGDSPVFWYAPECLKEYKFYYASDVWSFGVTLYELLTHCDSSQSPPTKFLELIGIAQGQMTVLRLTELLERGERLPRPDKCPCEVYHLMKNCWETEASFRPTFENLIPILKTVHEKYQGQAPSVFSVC
Chain of UniProt P03956 (whole entry, looked up): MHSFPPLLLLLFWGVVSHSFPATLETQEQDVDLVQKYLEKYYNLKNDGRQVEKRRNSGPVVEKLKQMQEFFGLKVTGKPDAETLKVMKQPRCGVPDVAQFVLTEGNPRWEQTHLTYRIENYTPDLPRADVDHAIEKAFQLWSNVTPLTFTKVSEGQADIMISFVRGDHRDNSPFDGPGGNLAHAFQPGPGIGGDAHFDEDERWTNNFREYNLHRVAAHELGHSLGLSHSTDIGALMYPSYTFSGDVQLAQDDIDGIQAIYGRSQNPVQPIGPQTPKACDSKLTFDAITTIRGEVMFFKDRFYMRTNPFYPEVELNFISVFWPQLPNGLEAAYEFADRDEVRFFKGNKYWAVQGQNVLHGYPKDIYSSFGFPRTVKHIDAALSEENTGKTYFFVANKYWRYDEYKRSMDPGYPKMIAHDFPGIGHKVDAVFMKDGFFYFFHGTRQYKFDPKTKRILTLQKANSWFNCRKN
Chain of UniProt Q7TPV4 (whole entry, looked up): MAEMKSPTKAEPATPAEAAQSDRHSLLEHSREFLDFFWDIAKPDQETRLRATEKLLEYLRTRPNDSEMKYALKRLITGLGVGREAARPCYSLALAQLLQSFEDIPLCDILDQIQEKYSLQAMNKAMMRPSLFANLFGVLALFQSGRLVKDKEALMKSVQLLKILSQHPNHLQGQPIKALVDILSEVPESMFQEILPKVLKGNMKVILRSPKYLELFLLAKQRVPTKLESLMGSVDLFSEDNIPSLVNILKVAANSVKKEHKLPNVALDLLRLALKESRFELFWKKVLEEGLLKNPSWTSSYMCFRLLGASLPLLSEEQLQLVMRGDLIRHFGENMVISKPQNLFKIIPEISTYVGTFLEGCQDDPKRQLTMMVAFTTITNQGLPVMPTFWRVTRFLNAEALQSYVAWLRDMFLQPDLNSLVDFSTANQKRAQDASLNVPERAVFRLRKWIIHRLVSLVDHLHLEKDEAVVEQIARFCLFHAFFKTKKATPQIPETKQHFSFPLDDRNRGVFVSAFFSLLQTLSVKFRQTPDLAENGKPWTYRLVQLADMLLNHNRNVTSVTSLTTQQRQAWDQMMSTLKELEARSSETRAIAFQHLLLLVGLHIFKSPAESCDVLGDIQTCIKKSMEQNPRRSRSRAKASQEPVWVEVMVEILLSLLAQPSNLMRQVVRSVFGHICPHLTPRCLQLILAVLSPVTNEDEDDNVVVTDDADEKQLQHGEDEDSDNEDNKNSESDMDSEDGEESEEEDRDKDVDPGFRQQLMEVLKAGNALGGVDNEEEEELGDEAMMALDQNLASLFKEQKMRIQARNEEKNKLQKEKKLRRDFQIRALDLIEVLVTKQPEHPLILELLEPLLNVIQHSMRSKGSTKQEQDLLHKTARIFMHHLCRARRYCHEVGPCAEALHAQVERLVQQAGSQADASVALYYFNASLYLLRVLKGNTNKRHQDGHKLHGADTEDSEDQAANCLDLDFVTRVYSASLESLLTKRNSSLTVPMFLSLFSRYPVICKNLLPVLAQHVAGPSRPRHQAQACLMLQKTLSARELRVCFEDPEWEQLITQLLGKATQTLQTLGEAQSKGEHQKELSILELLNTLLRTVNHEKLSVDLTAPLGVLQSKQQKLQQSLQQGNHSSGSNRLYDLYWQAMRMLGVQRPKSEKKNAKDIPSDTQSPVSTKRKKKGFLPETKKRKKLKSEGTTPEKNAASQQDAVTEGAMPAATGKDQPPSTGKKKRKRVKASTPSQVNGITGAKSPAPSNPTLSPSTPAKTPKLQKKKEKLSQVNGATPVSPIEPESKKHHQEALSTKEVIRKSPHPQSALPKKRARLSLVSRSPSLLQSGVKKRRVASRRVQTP
Chain of UniProt P10081 (whole entry, unmodified, looked up): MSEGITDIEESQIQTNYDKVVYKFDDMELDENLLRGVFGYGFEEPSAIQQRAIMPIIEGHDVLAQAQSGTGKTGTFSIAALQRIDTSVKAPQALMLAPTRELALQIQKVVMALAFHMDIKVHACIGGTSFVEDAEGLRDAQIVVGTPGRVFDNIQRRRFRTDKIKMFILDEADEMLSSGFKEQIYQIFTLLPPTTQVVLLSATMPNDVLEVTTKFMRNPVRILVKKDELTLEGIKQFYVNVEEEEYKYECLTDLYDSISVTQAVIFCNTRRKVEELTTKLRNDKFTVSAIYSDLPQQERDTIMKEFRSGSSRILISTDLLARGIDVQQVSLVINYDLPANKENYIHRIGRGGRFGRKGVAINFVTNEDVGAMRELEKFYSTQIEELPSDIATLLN
Chain of UniProt P06400 (whole entry, unmodified, looked up): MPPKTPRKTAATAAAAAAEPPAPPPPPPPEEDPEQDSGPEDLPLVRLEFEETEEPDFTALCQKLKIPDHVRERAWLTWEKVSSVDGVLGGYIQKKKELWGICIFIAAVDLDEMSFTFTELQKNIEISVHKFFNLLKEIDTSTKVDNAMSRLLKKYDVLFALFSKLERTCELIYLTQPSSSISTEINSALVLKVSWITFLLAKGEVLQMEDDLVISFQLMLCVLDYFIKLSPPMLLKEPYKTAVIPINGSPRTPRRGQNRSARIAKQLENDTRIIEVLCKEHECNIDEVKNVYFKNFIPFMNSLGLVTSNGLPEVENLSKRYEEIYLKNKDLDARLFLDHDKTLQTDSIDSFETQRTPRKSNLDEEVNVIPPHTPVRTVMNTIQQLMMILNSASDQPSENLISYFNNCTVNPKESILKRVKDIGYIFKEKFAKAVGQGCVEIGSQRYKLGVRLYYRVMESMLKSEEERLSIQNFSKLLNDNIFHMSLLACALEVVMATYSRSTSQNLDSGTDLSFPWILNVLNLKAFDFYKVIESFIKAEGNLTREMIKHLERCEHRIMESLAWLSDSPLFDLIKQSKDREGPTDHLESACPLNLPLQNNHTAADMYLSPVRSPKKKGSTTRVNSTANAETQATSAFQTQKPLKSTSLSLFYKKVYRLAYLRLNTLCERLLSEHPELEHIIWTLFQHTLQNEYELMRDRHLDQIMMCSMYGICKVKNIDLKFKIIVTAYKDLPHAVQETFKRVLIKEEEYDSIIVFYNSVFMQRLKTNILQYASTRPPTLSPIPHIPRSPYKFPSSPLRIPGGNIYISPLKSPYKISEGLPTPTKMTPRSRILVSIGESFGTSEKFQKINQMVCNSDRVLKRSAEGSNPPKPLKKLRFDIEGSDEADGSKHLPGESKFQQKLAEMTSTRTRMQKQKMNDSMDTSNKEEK
Chain of UniProt P61077 (whole entry, looked up): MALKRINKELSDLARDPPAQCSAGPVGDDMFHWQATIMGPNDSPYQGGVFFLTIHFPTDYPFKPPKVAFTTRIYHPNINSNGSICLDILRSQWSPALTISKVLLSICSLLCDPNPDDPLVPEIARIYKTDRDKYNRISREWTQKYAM

Substance | target or system | test | system | conditions | how to read | quantity | result
UBE2D3 (Homo sapiens, UniProt P61077) | MYCBP2 4378-4640 C4520K/I4392A (Homo sapiens) | E2-E3 isopeptide formation |  | single turnover |  | reduction of isopeptide formation | 30 % reduction
B1 | ACTA1/cdc8 actin filaments decorated with tropomyosin (Gallus gallus/Schizosaccharomyces pombe) | TIRF microscopy |  | added: ATP 10 µM | baseline: bare actin, higher = more processive runs | relative run frequency | > 7 fold
B2 | DLAT/PDHX mature 60-mer core (Homo sapiens) | SEC |  |  |  | molecule per partner | 50.1 ± 0.7
B3 (RAB8A GTP-bound Q67L) | Myo5a 1260-1853 (Mus musculus, UniProt Q99104) | pull-down | CHO-IR, lysate |  | baseline: wild-type Rab8A, higher = more binding | relative binding | 2.5 fold
SLC27A4 ERx to C-terminus | RPE65 (Homo sapiens, UniProt Q16518) | HPLC | 293T-LC | 4 hours, normalised by RPE65 expression, added: all-trans-retinol 7 µM | baseline: pRK control, higher = stronger inhibition | inhibition of 11-cis-retinol synthesis | 50%
TIMP2 N-terminal domain S4P/I35V/S68N/V71I/H97R | MMP1 100-269 (Homo sapiens, UniProt P03956) | fluorogenic substrate cleavage, inhibitor, enzyme inhibition assay |  | apparent |  | Ki | 0.11 nM
IDEYFSEQPLKNLLLSTSAEQIEKCFIIENISTIA (IFNAR1 478-512 E496A (Homo sapiens, UniProt P17181)) | TYK2 23-583 (Homo sapiens, UniProt P29597) | differential scanning fluorimetry | peptide |  |  | apparent Tm reduction | 1 °C
Ac-TASSEV-NH2 (PLCB3 residues 579-584, N-acetyl, C-amide (Homo sapiens); N-acetyl, C-amide) | PLCB3 (Homo sapiens, UniProt Q01970) | ACh-induced Ca2+ response | peptide, HEK293 | 100 µM, 1 h | baseline: vehicle, higher = stronger reduction | reduction | 39.5%
S. cerevisiae FACT complex | HTB1/HTA1 (Saccharomyces cerevisiae, UniProt P02293+P04911) | ITC |  | first of two sites |  | Kd | 340 nM
Gphn E domain , monomeric | ARHGEF9 1-456, CB2-SH3+, FlAsH on tetra-cysteine motif (rat) | CFP donor lifetime, time-resolved fluorescence |  | 1 µM, pH 8, NaCl 250 mM, added: ligand 100 µM |  | fluorescence lifetime | 1.78 ns
RFC1/RFC2/RFC3/RFC4/RFC5 Rfc1 284-end (Saccharomyces cerevisiae) | POL30 1-258 C22S/C62S/C81S/S43C, MDCC on Cys43 (Saccharomyces cerevisiae, UniProt P15873) | stopped-flow fluorescence |  | 100 nM DNA, 20 °C, added: ATP 0.5 mM |  | kobs of clamp release | 0.41 ± 0.04 s⁻¹
{DOTA}-TNYLFSPNGPIARAW (peptide; N-terminal DOTA; DOTA = O=C(O)CN1CCN(CC(=O)O)CCN(CC(=O)*)CCN(CC(=O)O)CC1) | EPHB4 16-539 (Homo sapiens, UniProt P54760) | SPR | peptide |  |  | koff | 0.00256 s⁻¹
human cathepsin G | Protein S100-A9 (S100A9, Homo sapiens, UniProt P06702) | ELISA |  | 70 min, 37 °C |  | Kd | > 100 nM
sfGFP-ssrA (Escherichia coli) | ClpA/ClpS (Escherichia coli) | SFGFP-ssrA degradation, steady-state kinetics |  | added: Phe-Val dipeptide 10 µM |  | KM | 167 µM
RFC1/RFC2/RFC3/RFC4/RFC5 (Saccharomyces cerevisiae) | POL30 (Saccharomyces cerevisiae, UniProt P15873) | release after ATP hydrolysis |  | global fit |  | rate constant of PCNA release | 1.7 s⁻¹
Mybbp1a (Mus musculus, UniProt Q7TPV4) | histone H3 peptide fragment (Homo sapiens) | pull-down | lysate | 4 °C | baseline: acetylated and unmodified peptides, higher = more binding | relative binding | 2 fold
SKA1/SKA2 (Homo sapiens) (sequence not shown) | TUBA1B/TUBB2B taxol-stabilized microtubules | residence times, single-molecule TIRF microscopy |  | 30 °C |  | koff | 4.9 ± 0.4 s⁻¹
ETDKE[pY][pY]TVKD (JAK1 1029-1039; pY1034/pY1035; pY = N[C@@H](Cc1ccc(OP(=O)(O)O)cc1)C(=O)O) | PTPN6 243-530 Q252A/C453S (Homo sapiens, UniProt P29350) | ITC | peptide |  |  | ΔH | -16.6 ± 0.4 kcal/mol
GIGYF2 fragment (Homo sapiens) | EIF4E2 52-234 (Homo sapiens, UniProt O60573) | competitor displacement of 4E-BP1, pull-down |  |  |  | half-life of complex | 5 min
B4 (TIF4631 572-853 K590R) | TIF1 Q186C/G370C, Alexa488/Alexa546 labels (Saccharomyces cerevisiae, UniProt P10081) | conformation of molecule, smFRET |  |  |  | binding | binds
B5 (Thy1) | ITGAV/ITGB3 extracellular, Fc fusion 31-992 (Homo sapiens) | optical tweezers force spectroscopy | Fc fusion |  |  | koff | 0.036 ± 0.01 s⁻¹
MPIFLDHILNKFLILHYA (SPAM peptide parental) | CD274 extracellular domain (Homo sapiens) | BLI | peptide |  |  | koff | 0.049 s⁻¹
B6 (enzyme) | C[C@@H](O)[C@H]1C(=O)N2C(C(=O)O)=C(SCCN=CN)C[C@H]12 | steady-state kinetics |  | pH 7 |  | kcat/Km | 39000 ± 6000 M⁻¹ s⁻¹
B7 (DNA polymerase beta 339-575) | DNA polymerase beta 1-379 (Thermus thermophilus, UniProt Q5SJ64) | SEC |  | pH 8.0, 37 °C, KCl 100 mM, added: dNTPs 10 µM | baseline: without dNTPs, higher = more complex | fold change in peak absorbance | 1.1 fold
B8 (UGT1A9) | COc1cccc(-c2cc(=O)c3ccc(O)cc3o2)c1 | steady-state kinetics |  | pH 7.4, 37 °C |  | Vmax/Km | 5 µL/min/mg
B9 (PPARG AF-1 1-136) | PIN1 (Homo sapiens, UniProt Q13526) | NMR |  |  |  | koff | 1430 s⁻¹ and 659 s⁻¹
CCND3/CDK4 fusion, linker (Homo sapiens) | RB1 F897A/L901A/R908A (Homo sapiens, UniProt P06400) | in vitro kinase assay |  |  | baseline: wild-type Rb, higher = greater difference | Rb phosphorylation | 90 fold
